{"data": "Measured values collected from several papers", "note": "± marks the error that the study gave."}
{"Compound": "CO[C@H]1CC[C@H](N2C(=O)CNc3ncc(-c4ccc(C(C)(C)O)nc4)nc32)CC1", "test system": "human, plasma", "setting": "oral, 30 mg, day -1, geometric mean", "quantity": "AUC(0-24)", "value": "1.14 µg·h/mL"}
{"Compound": "COc1cc(C(=O)NC2CCN(C)CC2)c(F)cc1Nc1ncc(C(F)(F)F)c(Oc2cccc3c2C(=O)N(C)C3)n1", "test system": "human patients", "setting": "oral, 10 mg, cycle 1 day 1, geometric mean", "quantity": "AUC(0-24)", "value": "0.33 µM·h"}
{"Compound": "C[C@@H]1CCO[C@H]2Cn3cc(C(=O)NCc4ccc(F)cc4F)c(=O)c(O)c3C(=O)N12", "test system": "human paediatric patients, weight sample B to under sample C kg, plasma", "setting": "oral, 50 mg film-coated tablet, steady state, geometric mean, population PK post-hoc, N 6", "quantity": "AUC(0-24)", "value": "57.3 µg·h/mL"}
{"Compound": "Cc1ccc([C@@H]2O[C@H](CO)[C@@H](O)[C@H](O)[C@H]2O)cc1Cc1ccc(-c2ccc(F)cc2)s1", "test system": "human, maintenance hemodialysis patients", "setting": "oral, 100 mg once daily, day 8, steady state, median", "quantity": "AUC(0-24)", "value": "7.25 µg·h/mL"}
{"Compound": "Cn1c(=O)oc2ccc(-c3ccc(C[C@@H](C#N)NC(=O)[C@@H]4CNCCCO4)cc3)cc21", "test": "HPLC-MS/MS", "test system": "healthy male humans, plasma", "setting": "oral, 25 mg", "quantity": "AUC(0-24)", "value": "7.5 µM·h"}
{"Compound": "CC(C)(Sc1ccncc1-c1ccc(C#N)c2ccccc12)C(=O)O", "test system": "human, plasma", "setting": "oral, 10 mg once daily, with: febuxostat 20 mg", "quantity": "AUC(0-24)", "value": "0.217 µg·h/mL"}
{"Compound": "CC(=O)c1c(C)c2cnc(Nc3ccc(N4CCNCC4)cn3)nc2n(C2CCCC2)c1=O", "test": "noncompartmental LC-MS/MS", "test system": "human patients, plasma", "setting": "oral, 125 mg, cycle 1 day 15, with: neratinib 240 mg", "quantity": "AUC(0-24)", "value": "3.45 µg·h/mL"}
{"Compound": "CC(=O)Nc1ccc(NC(=S)NC(=O)c2ccc(C(C)(C)C)cc2)cc1", "tested on": "OCI-Ly1", "setting": "1 µM, 120 h", "quantity": "viability", "value": "29%"}
{"Compound": "CC(=O)O[C@H]1C(=O)[C@@]2(C)[C@H]([C@H](OC(=O)c3ccccc3)[C@]3(O)C[C@H](OC(=O)[C@H](O)[C@@H](NC(=O)c4ccccc4)c4ccccc4)C(C)=C1C3(C)C)[C@]1(OC(C)=O)CO[C@@H]1C[C@@H]2O", "test system": "human patients, plasma", "setting": "intravenous, 80 mg/m^2, day 1", "quantity": "AUC(0-24)", "value": "2.53 ± 1.42 µM·h"}
{"Compound": "CCc1nc(C(N)=O)c(Nc2ccc(N3CCC(N4CCN(C)CC4)CC3)c(OC)c2)nc1NC1CCOCC1", "test system": "human patients", "setting": "oral, 450 mg once daily, cycle 1 day 15", "quantity": "AUC(0-24)", "value": "34.8 µg·h/mL"}
{"Compound": "Cc1nc(-c2ccc(OCC(C)C)c(C#N)c2)sc1C(=O)O", "test system": "human, plasma", "setting": "oral, 20 mg once daily, with: verinurad 10 mg", "quantity": "AUC(0-24)", "value": "2.41 µg·h/mL"}
{"Compound": "Cc1cc(Nc2cc3ncccc3c(N[C@@H]3C[C@H]4CC[C@@H](C3)N4CCC#N)n2)n[nH]1", "test system": "human, plasma", "setting": "10 mg", "quantity": "AUC(0-24)", "value": "0.000868 µg·h/mL"}
{"Compound": "CC(=O)O.NC(=O)c1cnc(N[C@@H]2CCCC[C@@H]2N)nc1Nc1cccc(-n2nccn2)c1", "test system": "human, plasma", "setting": "oral, 110 mg once daily", "quantity": "AUC(0-24)", "value": "2.34 µg·h/mL"}
{"Compound": "N#Cc1ccc2c(c1)[C@H]1CCCN(C(=O)c3ccc4[nH]cnc4c3)[C@H]1C2", "test system": "human, plasma", "setting": "oral, 80 mg once daily, after first dose", "quantity": "AUC(0-24)", "value": "55.7 µM·h"}
{"Compound": "CC(C)[C@H](N)C(=O)NCCCS(=O)(=O)O", "test system": "human both sexes, plasma", "setting": "oral, 171 mg once daily, day 1, fasted capsule", "quantity": "AUC(0-24)", "value": "6.26 µg·h/mL"}
{"Compound": "C#Cc1cccc(Nc2ncnc3cc(OC)c(OCCCCCCC(=O)NO)cc23)c1", "tested on": "OCI-Ly1", "setting": "1 µM, 120 h", "quantity": "viability", "value": "9.74%"}
{"note": "For quick reference, copied from above:"}
{"Compound": "CC(=O)c1c(C)c2cnc(Nc3ccc(N4CCNCC4)cn3)nc2n(C2CCCC2)c1=O", "test": "noncompartmental LC-MS/MS", "test system": "human patients, plasma", "setting": "oral, 125 mg, cycle 1 day 15, with: neratinib 240 mg", "quantity": "AUC(0-24)", "value": "3.45 µg·h/mL"}
{"Compound": "CCc1nc(C(N)=O)c(Nc2ccc(N3CCC(N4CCN(C)CC4)CC3)c(OC)c2)nc1NC1CCOCC1", "test system": "human patients", "setting": "oral, 450 mg once daily, cycle 1 day 15", "quantity": "AUC(0-24)", "value": "34.8 µg·h/mL"}
